Results pooled from the literature.
Compare with care: the assays were run in different laboratories. Several values in a cell are separate wells, animals, samples, runs or records. ± marks the error that the study gave.

COC1OC(C)C(OC2OC(C)C(OS(=O)(=O)O)C(OC3OC(C)C(OC4OC(C)C(OS(=O)(=O)O)C(OC5OC(C)C(OC6OC(C)C(OS(=O)(=O)O)C(OC7OC(C)C(OC8OC(C)C(OS(=O)(=O)O)C(OC9OC(C)C(OC%10OC(C)C(OS(=O)(=O)O)C(OC%11OC(C)C(OC%12OC(C)C(OS(=O)(=O)O)C(OS(=O)(=O)O)C%12O)C(OS(=O)(=O)O)C%11O)C%10O)C(OS(=O)(=O)O)C9O)C8O)C(OS(=O)(=O)O)C7O)C6O)C(OS(=O)(=O)O)C5O)C4O)C(OS(=O)(=O)O)C3O)C2O)C(OS(=O)(=O)O)C1O (stereo not drawn)
thrombin time prolongation (human plasma; 128 µg/mL; baseline: control): 1 fold

O=C(N[C@@H](Cc1coc2ccccc12)B(O)O)[C@@H]1C[C@H]2CC[C@@H]1O2
T/C (tumour growth; MM1.S, mouse, MM1.S multiple myeloma xenograft; oral, 10 mg/kg twice weekly): -13%

COc1ccc(C(=O)CCc2cc(C(CCc3ccc(O)cc3OC)c3ccc(O)cc3)c(O)cc2OC)cc1 (racemic)
5-HETE level (human blood; 10 µM, with: A23187): 4820 ± 2400 pg/mL

COc1cc(N2CCN(C(=O)C3CCCN3)CC2)ccc1Nc1ncc(Cl)c(Nc2ccccc2P(C)(C)=O)n1 (stereo not drawn)
tumour volume (nude mice, NCI-H3122 xenograft; oral, 25 mg/kg every two days, day 3): 107 mm3 and 20.4 mm3 and 58.2 mm3 and 61.9 mm3 and 111 mm3

CN(CCNCc1cc(C(=O)[O-])ccc1[O-])CCNCc1cc(C(=O)[O-])ccc1[O-].[Cl-].[Fe+3].[K+].[K+]
vena cava signal enhancement (T1-weighted MRI 4.7 T; BALB/c mice; 0.10 mmol/kg): ~50%

COC1OC(C)C(OC2OC(C)C(OS(=O)(=O)O)C(OC3OC(C)C(OC4OC(C)C(OS(=O)(=O)O)C(OC5OC(C)C(OC6OC(C)C(OS(=O)(=O)O)C(OS(=O)(=O)O)C6OS(=O)(=O)O)C(OS(=O)(=O)O)C5OS(=O)(=O)O)C4OS(=O)(=O)O)C(OS(=O)(=O)O)C3OS(=O)(=O)O)C2OS(=O)(=O)O)C(OS(=O)(=O)O)C1OS(=O)(=O)O (stereo not drawn)
thrombin time prolongation (human plasma; 128 µg/mL; baseline: control): 1 fold

CN1CCC[C@]1(C)/C=C/S(=O)(=O)NC(=O)Nc1c2c(cc3c1CCC3)CCC2
IL-18 inhibition (human, whole blood ex vivo; 250 mg single dose, 3 h, single ascending dose, with: LPS and ATP): 104%

COC1OC(C)C(OC2OC(C)C(O)C(OC3OC(C)C(OC4OC(C)C(O)C(OC5OC(C)C(OC6OC(C)C(O)C(OC7OC(C)C(O)C(OS(=O)(=O)O)C7OS(=O)(=O)O)C6OS(=O)(=O)O)C(OS(=O)(=O)O)C5OS(=O)(=O)O)C4OS(=O)(=O)O)C(OS(=O)(=O)O)C3OS(=O)(=O)O)C2OS(=O)(=O)O)C(OS(=O)(=O)O)C1OS(=O)(=O)O (stereo not drawn)
thrombin time prolongation (human plasma; 128 µg/mL; baseline: control): 1 fold

CCCCCc1ccc(S(=O)(=O)N2CC2C(=O)OC)cc1 (stereo not drawn)
tumour growth inhibition (mouse, Lewis lung carcinoma; intraperitoneal, 5 mg/kg, 16 doses, day 11): 68%

COc1cc(O)ccc1CCC(c1ccc(O)cc1)c1cc2c(c(C)c1O)OC(c1ccc(O)cc1)CC2 (mixture of isomers)
5-HETE level (human blood; 30 µM, with: A23187): 294 ± 178 pg/mL

COC1OC(C)C(OS(=O)(=O)O)C(OC2OC(C)C(OS(=O)(=O)O)C(OC3OC(C)C(OS(=O)(=O)O)C(OS(=O)(=O)O)C3OS(=O)(=O)O)C2OS(=O)(=O)O)C1OS(=O)(=O)O (stereo not drawn)
thrombin time (human plasma; 128 µg/mL): 9.8 ± 0.5 s

COc1cc2c(NC3CCN(C(C)C)CC3)cc(N3CCOCC3)nc2cc1OCCCN1CCCC1
normalised protein abundance (TMT quantitative proteomics, refers to: phosphoglycerate mutase 1; 5xFAD mice, hippocampus; dose not given): -0.0129 and 0.00764 and -0.0193 and -0.0437 and -0.00525 and -0.0943 and -0.0775 and -0.0435

O=CCNCCOn1c(=O)n(OCCNCCO)c(=O)n(OCCNCCOn2c(=O)n(OCCNCCO)c(=O)n(OCCNCCO)c2=O)c1=O
inhibition (DPPH scavenging; 250 µg/mL): 23.2%

COC1OC(C)C(OS(=O)(=O)O)C(OC2OC(C)C(OS(=O)(=O)O)C(OC3OC(C)C(OS(=O)(=O)O)C(OC4OC(C)C(OS(=O)(=O)O)C(OC5OC(C)C(OS(=O)(=O)O)C(OC6OC(C)C(OS(=O)(=O)O)C(OC7OC(C)C(OS(=O)(=O)O)C(OS(=O)(=O)O)C7O)C6O)C5O)C4O)C3O)C2O)C1O (stereo not drawn)
thrombin time (human plasma; 128 µg/mL): 9.6 ± 0.6 s

COC1CN([C@H]2CC[C@H]([C@@]3(C)Oc4c(Cl)cc(C(=O)NCc5c(SC)cc(C)[nH]c5=O)c(C)c4O3)CC2)C1
log2 fold change (RNA-seq, refers to: RASL10A; human, whole blood; dose not given, 24 h; baseline: pretreatment baseline): 1.67

S=C(S)OC1CC2CC1C1CCCC21 (stereo not drawn)
maximum possible effect (hot plate; male ICR-CD1 mice; icv, 75 µg/animal, 15 min): 13.4% and 16.4% and 20% and 17.2%

COC1OC(C)C(OS(=O)(=O)O)C(OC2OC(C)C(OS(=O)(=O)O)C(OC3OC(C)C(OS(=O)(=O)O)C(OC4OC(C)C(OS(=O)(=O)O)C(OC5OC(C)C(OS(=O)(=O)O)C(OC6OC(C)C(OS(=O)(=O)O)C(OS(=O)(=O)O)C6O)C5O)C4O)C3O)C2O)C1O (stereo not drawn)
thrombin time prolongation (human plasma; 128 µg/mL; baseline: control): 1 fold

COc1cnc2cccc(N3CCc4c(cc(Cn5ccnc5)cc4-c4cn(C)nc4C(F)(F)F)C3=O)c2c1
tumour volume (BALB/c nude mice, MV4-11 xenograft; intraperitoneal, 100 mg/kg, day 14): 202 mm3 and 207 mm3 and 189 mm3 and 147 mm3

A few entries again:
CCCCCc1ccc(S(=O)(=O)N2CC2C(=O)OC)cc1 (stereo not drawn)
tumour growth inhibition (mouse, Lewis lung carcinoma; intraperitoneal, 5 mg/kg, 16 doses, day 11): 68%

COc1ccc(C(=O)CCc2cc(C(CCc3ccc(O)cc3OC)c3ccc(O)cc3)c(O)cc2OC)cc1 (racemic)
5-HETE level (human blood; 10 µM, with: A23187): 4820 ± 2400 pg/mL
